Values quoted from earlier work as cited in several papers.
Lines come from different studies, so protocols differ. Numbers after ± are the reported error. Values after ≈ are worked out from the molar mass of the structure shown.
Sequence of UniProt Q9UUB1 (whole entry, looked up): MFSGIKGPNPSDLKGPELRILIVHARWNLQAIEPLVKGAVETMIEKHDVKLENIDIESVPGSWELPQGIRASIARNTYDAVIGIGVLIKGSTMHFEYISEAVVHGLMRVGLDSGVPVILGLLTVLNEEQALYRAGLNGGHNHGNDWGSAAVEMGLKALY

C=CC(=O)N1CCC[C@@H](n2nc(-c3cccc4ccccc34)c3c(N)ncnc32)C1  kinact (Epidermal growth factor receptor (EGFR, Homo sapiens, UniProt P00533)): 0.13 ± 0.05 min⁻¹
CCCCCCc1ccc(Oc2ccccc2C#N)c(O)c1  Tmax (mouse; 40 mg/kg): 4 h
Cc1ccccc1-c1cc(N2CCNCC2)ncc1N(C)C(=O)C(C)(C)c1cc(C(F)(F)F)cc(C(F)(F)F)c1  Tmax (healthy volunteers, plasma; oral, 450 mg, single dose, netupitant alone): 24.2 h
CNCCCOc1cc(F)c(-c2c(Cl)nc3ncnn3c2N[C@@H](C)C(F)(F)F)c(F)c1  solubility (water): 890 µg/mL (≈ 1910 µM)
CC(=O)O[C@H]1C2=C(C(=O)C(OC(=O)c3ccc(Cl)cc3)=C(C(C)C)C2=O)[C@@]2(C)CCCC(C)(C)[C@@H]2[C@@H]1OC(=O)c1ccc(Cl)cc1  GI50 (HL-60; cell growth): 5 to 10 µM
O=C([O-])CN1CCN(CC(=O)[O-])CCN(Cc2cc(-c3ccc(OCC(=O)O)cc3)cc(C(=O)[O-])n2)CCN(CC(=O)[O-])CC1.[Eu+3]  Eu3+ luminescence lifetime: 1.1 ms
CCN(CC)C(=O)c1ccc(-c2c3ccc(=[N+](C)C)cc-3sc3cc4c(cc23)C(C)(C)CCN4C)s1  molar extinction coefficient (methanol): 67700 M⁻¹ cm⁻¹
CC(C)C(=O)Nc1c(NC[C@H](O)[C@H](O)[C@H](O)CO)[nH]c(=O)[nH]c1=O  kcat (6,7-dimethyl-8-ribityllumazine synthase (rib4, Schizosaccharomyces pombe, UniProt Q9UUB1); enzyme kinetics; pH 7.0): 0.95 ± 0.02 min⁻¹
Oc1cccc(-c2cccc(O)n2)n1.[Cl-].[Cl-].[Ru+2].c1cnc2c(c1)ccc1cccnc12.c1cnc2c(c1)ccc1cccnc12  pKa1: 5.2
Cc1cc(C#N)cc(C)c1Oc1nc(NC2CCN(Cc3ccc(S(N)(=O)=O)cc3)CC2)nc2ccsc12  solubility (pH 7.4): < 1 µg/mL
Cc1nc2n(c(=O)c1CCN1CCC(c3noc4cc(F)ccc34)CC1)CCCC2O (centres unmarked)  Kp,uu,brain (mouse): 0.02
Cc1ccccc1-c1cc(N2CC[N+](C)([O-])CC2)ncc1N(C)C(=O)C(C)(C)c1cc(C(F)(F)F)cc(C(F)(F)F)c1  half-life (healthy volunteers, plasma; oral, 450 mg, single dose, with: palonosetron 0.75 mg): 68.6 h
Nc1ncnc2c1ncn2[C@H]1C[C@H](O)[C@@H](COP(=O)(O)OP(=O)(O)[C@H](F)P(=O)(O)O)O1  pKa4 (measured: bisphosphonate leaving group; aqueous solution; measured experimentally): 9
COc1ccn2c(Nc3cc(F)cc(F)c3)c(-c3ccccn3)nc2c1  logD (pH 7.4): 3.6
CC(C)CC(CC(C)C)NC(=O)[C@H](Cc1cnc[nH]1)NC(=O)CNC(=O)[C@@H](NC(=O)[C@H](C)NC(=O)[C@H](Cc1c[nH]c2ccccc12)NC(=O)[C@H](CCC(N)=O)NC(=O)[C@@H](Cc1ccccc1)NC(=O)COCC(=O)Nc1ccc(CNC(=O)CN2CCN(CC(=O)O)CCN(CC(=O)O)CCN(CC(=O)O)CC2)cc1)C(C)C [gallium-68 labelled]  tissue uptake (nude mice, PC-3 tumour xenograft, pancreas; 250 pmol): ~15 %ID/g
C=C[C@@H]1C[C@]1(NC(=O)[C@@H]1C[C@@H](Oc2ncc(OC)c3ccccc23)CN1C(=O)[C@@H](NC(=O)OC(C)(C)C)C(C)(C)C)C(=O)NS(=O)(=O)C1CC1  AUC (rat; 30 mg/kg): 0.37 µM·h
CN1CCN(c2cc(-c3ccccc3CO)c(N(C)C(=O)C(C)(C)c3cc(C(F)(F)F)cc(C(F)(F)F)c3)cn2)CC1  Tmax (healthy volunteers, plasma; oral, dose not given, netupitant-palonosetron, fed): 16.7 h
CC(C)[C@@H]1CC[C@@H](C)C[C@H]1C(=O)NCCc1ccccn1  micronucleus formation (mouse, bone marrow polychromatic erythrocytes; oral gavage, up to 2000 mg/kg): negative
CC(=O)N[C@H](CC(=O)O)C(=O)N[C@H](Cc1c[nH]c2ccccc12)C(=O)N[C@H](Cc1ccccc1)C(=O)N[C@H](CCCCN)C(=O)N[C@H](C)C(=O)N[C@H](Cc1ccccc1)C(=O)N[C@H](Cc1ccc(O)cc1)C(=O)N[C@H](CC(=O)O)C(=O)N[C@H](CCCCN)C(=O)N[C@@H](C(=O)N[C@H](C)C(=O)N[C@H](CCC(=O)O)C(=O)N[C@H](CCCCN)C(=O)N[C@H](Cc1ccccc1)C(=O)N[C@H](CCCCN)C(=O)N[C@H](CCC(=O)O)C(=O)N[C@H](C)C(=O)N[C@H](Cc1ccccc1)C(N)=O)C(C)C  small intestine level ratio (LDLR-knockout mouse, small intestine; 45 mg/kg/day; reference: between administration routes): 1.66 ± 0.33 fold
COCCOCCOCCOCCC(=O)NCc1cc(CNC(=O)CCOCCOCCOCCOC)cc(-c2cc3cc4nc(c(OC)c5[nH]c(cc6nc(cc2[nH]3)CC6(C)C)cc5-c2cc(CNC(=O)CCOCCOCCOCCOC)cc(CNC(=O)CCOCCOCCOCCOC)c2)CC4(C)C)c1  Qy emission maximum (PBS; room temperature): 733 nm
CC(C)(C)C1=CC(=NNC(=O)c2ccncc2)C=C(C(C)(C)C)C1=O  solubility (pH 6.5): 3.1 to 6.3 µg/mL (≈ 9.13 to 18.6 µM)
O=C(CCCCC[N+]#[C][99Tc-5]([C]#[N+]CCCCCC(=O)N[C@H]1C(O)O[C@H](CO)[C@@H](O)[C@@H]1O)([C]#[N+]CCCCCC(=O)N[C@H]1C(O)O[C@H](CO)[C@@H](O)[C@@H]1O)([C]#[N+]CCCCCC(=O)N[C@H]1C(O)O[C@H](CO)[C@@H](O)[C@@H]1O)([C]#[N+]CCCCCC(=O)N[C@H]1C(O)O[C@H](CO)[C@@H](O)[C@@H]1O)[C]#[N+]CCCCCC(=O)N[C@H]1C(O)O[C@H](CO)[C@@H](O)[C@@H]1O)N[C@H]1C(O)O[C@H](CO)[C@@H](O)[C@@H]1O (some centres unmarked)  tumour/muscle ratio (mouse A549 xenograft): 29.7 ± 3.12
COC(=O)c1cc(=O)n(C)c2cc(-c3ccc(OC)cc3)sc12  emission maximum (dichloromethane; 10 µM): 472 nm
CC#N.Cc1ccc(O)c(CN(CCN(Cc2ccccn2)Cc2ccccn2)Cc2ccccn2)c1.[Mn+2]  reduction potential Mn(III)/Mn(II) (concentration not given): 466 mV vs Ag/AgCl
Cc1[nH]nc2c1N=C(c1ccccc1Cl)c1cnc(N3CCOCC3)cc1N2  tolerability (healthy adult volunteers; 10 mg): not toxic
C=CC(OS(=O)(=O)O)c1ccc(OC)cc1 (centres unmarked)  Km (sulfonation, substrate; human liver): 727 µM
CC(=O)N1CCC(NC(=O)NC23CC4CC(C)(CC(C2)c2ccccc24)C3)CC1  remaining compound (human liver microsomes; 60 min): 1%
C=C[C@@H]1C[C@]1(NC(=O)[C@@H]1C[C@@H](Oc2nccc3ccccc23)CN1C(=O)[C@@H](NC(=O)OC(C)(C)C)C(C)(C)C)C(=O)NS(=O)(=O)C1CC1  half-life (rat, plasma; dose not given): 2.2 h
CC(C)OC(=O)[C@H](CO)NCc1cc(Cl)c(OCc2cccc(-c3ccccc3)c2Br)cc1OCc1cccnc1  transformation (dog liver S9; 40 min): 100%
CCCN1CC(c2ccc(S(C)(=O)=O)cc2)=C(c2ccc(C(=O)O)cc2)C1=O  exposure (renal insufficiency patients; dose not given; reference: healthy subjects): increased
CC(C)C[C@@H](NC(=O)[C@@H](CCC(=O)O)NC(=O)[C@@H](CC(C)C)NC(=O)[C@@H](CC(C)C)NC(=O)[C@@H](CC(C)C)NC(=O)[C@H](NC(=O)[C@@H](CCC(=O)O)NC(=O)[C@H](NC(=O)[C@H]1CCCN1C(=O)[C@@H](Cc1ccccc1)NC(=O)[C@@H](CC(C)C)NC(=O)[C@@H](Cc1c[nH]c2ccccc12)NC(=O)[C@@H](CCC(=O)O)NC(=O)[C@@H](CC(C)C)NC(=O)[C@@H](Cc1ccc(O)cc1)NC(=O)[C@@H](CCCNC(=N)N)NC(=O)[C@@H](C)NC(=O)[C@@H](Cc1c[nH]c2ccccc12)NC(=O)[C@H]1CCCN1C(=O)[C@@H](CC(N)=O)NC(=O)[C@@H](CCC(N)=O)NC(=O)[C@@H](CCC(=O)O)NC(=O)[C@@H](CCC(=O)O)NC(=O)[C@@H](CS)NC(=O)[C@@H](C)NC(=S)Nc1ccc(CC2CN(CC(=O)O)CCN(CC(=O)O)CCN2CC(=O)O)cc1)[C@H](C)O)[C@H](C)O)C(=O)O (some centres unmarked) [copper-64 labelled]  tumour uptake (tumour; concentration not given): 1.36 ± 0.43 %ID/g
O=C(O)c1cccc(S(=O)(=O)Nc2ccccc2)c1  fraction of dose by β-oxidation (human; clinical mass balance): 6.1%
O=C1C2=C(CCN(Cc3ccccc3)C2)N2CCN=C2N1Cc1ccc(C(F)(F)F)cc1  half-life (rats; oral, 50 mg/kg): 4.31 h
O=C([O-])CN1CCN(CC(=O)[O-])CCN(CC(=O)NCC2CCC(C(=O)NC(Cc3ccc4ccccc4c3)C(=O)NCCCCC(NC(=O)NC(CCC(=O)O)C(=O)O)C(=O)O)CC2)CCN(CC(=O)[O-])CC1.[68Ga+3] (centres unmarked)  absorbed dose (human, liver; literature data): 0.029 mSv/MBq
O=C(CCCCCCC(=O)Nc1ccccc1)NO[C@@H]1O[C@H](C(=O)O)[C@@H](O)[C@H](O)[C@H]1O  steady-state serum exposure (human; reference: vorinostat): 4 fold
C=C[C@@H]1C[C@]1(NC(=O)[C@@H]1C[C@@H](Oc2nccc3c(OC)cccc23)CN1C(=O)[C@@H](NC(=O)OC(C)(C)C)C(C)(C)C)C(=O)NS(=O)(=O)C1CC1  sinus node recovery time change (isolated perfused rabbit heart; 10 µM, time not given): 17%
COc1cc(-c2cnn(C)c2)ccc1Nc1ncc2ccnc(N[C@@H](C)C(C)(C)C)c2n1  intrinsic clearance (human liver microsomes): 151 µL/min/mg protein
O=S(=O)(c1ccccc1)N1CCCCC1  recovery (sodium borate buffer; 24 h, pH 10): 100%
c1csc(CNc2cc[nH]n2)c1  Cmax (female rat; oral, 30 mg/kg of parent drug, measured as metabolite): 1540 ng/mL
CC(C)Sc1cccc(O)c(=O)c1O  pKa1: 5.9
C=C[C@@H]1C[C@]1(NC(=O)[C@@H]1C[C@@H](Oc2cc(-c3ccccc3)nc3cc(OC)ccc23)CN1C(=O)[C@@H](NC(=O)OC(C)(C)C)C(C)(C)C)C(=O)NS(=O)(=O)C1CC1  AUC (rat, plasma; oral, 20 mg/kg, 4 h): 0.73 µM·h
O=P(O)(O)CN1CCN(CP(=O)(O)O)CCN(CP(=O)(O)O)CCN(CP(=O)(O)O)CC1.[153Sm+3]  tissue uptake (bone; 4 h): 3.94 %ID/g
CN1CCC(C)(C)c2cc3c(-c4ccc(C(=O)N5CCCCC5)s4)c4ccc(=[N+](C)C)cc-4sc3cc21  logP (n-octanol/water): 1.7
Cc1cccc(-c2cccc(C)n2)n1.[Ru+2].c1ccc(-c2cccc(-c3ccccn3)n2)nc1.c1ccncc1  ligand exchange quantum yield (acetonitrile; concentration not given): 0.33
